Results of several laboratories.
± marks the error that the study gave.
STS: Steryl-sulfatase (STS, Homo sapiens, UniProt P08842)
Sequence of UniProt P08842 (whole entry, looked up): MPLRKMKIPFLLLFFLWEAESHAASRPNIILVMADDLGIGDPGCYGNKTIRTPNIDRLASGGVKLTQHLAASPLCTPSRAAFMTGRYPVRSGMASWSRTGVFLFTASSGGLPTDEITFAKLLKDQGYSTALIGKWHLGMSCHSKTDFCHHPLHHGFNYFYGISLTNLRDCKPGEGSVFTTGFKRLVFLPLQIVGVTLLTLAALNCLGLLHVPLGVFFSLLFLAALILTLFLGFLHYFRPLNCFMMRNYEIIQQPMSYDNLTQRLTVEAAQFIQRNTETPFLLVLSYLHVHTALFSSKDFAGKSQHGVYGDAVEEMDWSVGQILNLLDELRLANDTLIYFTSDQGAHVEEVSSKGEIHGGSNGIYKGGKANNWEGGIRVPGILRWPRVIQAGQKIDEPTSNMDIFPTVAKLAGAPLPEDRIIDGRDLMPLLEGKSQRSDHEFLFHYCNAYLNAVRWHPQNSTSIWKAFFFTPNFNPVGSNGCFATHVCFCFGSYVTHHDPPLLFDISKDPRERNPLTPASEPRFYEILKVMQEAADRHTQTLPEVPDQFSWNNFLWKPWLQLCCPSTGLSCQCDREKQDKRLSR
Ephx2: Bifunctional epoxide hydrolase 2 (Ephx2, Mus musculus, UniProt P34914)
Sequence of UniProt P34914 (whole entry, looked up): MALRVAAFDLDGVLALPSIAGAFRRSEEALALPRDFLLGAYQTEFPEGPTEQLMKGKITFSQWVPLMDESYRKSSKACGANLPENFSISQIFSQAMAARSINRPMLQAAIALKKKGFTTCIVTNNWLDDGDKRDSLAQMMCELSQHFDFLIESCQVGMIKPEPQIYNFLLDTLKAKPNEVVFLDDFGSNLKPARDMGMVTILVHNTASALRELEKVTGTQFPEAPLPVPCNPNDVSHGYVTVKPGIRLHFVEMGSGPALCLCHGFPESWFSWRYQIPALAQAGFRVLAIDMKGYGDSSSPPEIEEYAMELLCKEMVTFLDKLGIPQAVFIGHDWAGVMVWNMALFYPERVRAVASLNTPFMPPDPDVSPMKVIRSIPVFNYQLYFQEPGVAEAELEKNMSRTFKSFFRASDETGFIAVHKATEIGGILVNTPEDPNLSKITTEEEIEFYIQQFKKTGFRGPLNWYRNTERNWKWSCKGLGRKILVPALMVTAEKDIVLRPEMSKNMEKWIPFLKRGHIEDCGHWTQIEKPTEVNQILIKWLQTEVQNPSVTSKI
Sequence of UniProt P00921 (whole entry, looked up): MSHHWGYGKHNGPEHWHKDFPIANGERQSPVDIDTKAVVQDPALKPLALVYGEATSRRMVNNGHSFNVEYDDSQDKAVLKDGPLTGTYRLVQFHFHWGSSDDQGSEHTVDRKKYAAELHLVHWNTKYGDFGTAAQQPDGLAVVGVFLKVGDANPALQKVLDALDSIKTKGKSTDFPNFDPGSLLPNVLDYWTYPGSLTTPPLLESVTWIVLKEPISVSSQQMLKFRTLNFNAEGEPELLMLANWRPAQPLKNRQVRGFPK
Sequence of UniProt P26439 (whole entry, looked up): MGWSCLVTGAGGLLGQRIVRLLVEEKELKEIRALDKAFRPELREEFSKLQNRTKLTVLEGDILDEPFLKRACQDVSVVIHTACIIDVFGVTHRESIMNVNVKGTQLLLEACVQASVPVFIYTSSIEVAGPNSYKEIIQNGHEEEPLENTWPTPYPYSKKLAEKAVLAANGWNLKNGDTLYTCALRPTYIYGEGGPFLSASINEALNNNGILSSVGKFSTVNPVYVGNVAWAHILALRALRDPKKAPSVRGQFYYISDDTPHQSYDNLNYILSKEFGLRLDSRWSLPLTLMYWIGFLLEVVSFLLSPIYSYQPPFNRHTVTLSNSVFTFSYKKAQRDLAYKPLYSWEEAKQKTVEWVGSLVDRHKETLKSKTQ
Sequence of UniProt P00690 (whole entry, looked up): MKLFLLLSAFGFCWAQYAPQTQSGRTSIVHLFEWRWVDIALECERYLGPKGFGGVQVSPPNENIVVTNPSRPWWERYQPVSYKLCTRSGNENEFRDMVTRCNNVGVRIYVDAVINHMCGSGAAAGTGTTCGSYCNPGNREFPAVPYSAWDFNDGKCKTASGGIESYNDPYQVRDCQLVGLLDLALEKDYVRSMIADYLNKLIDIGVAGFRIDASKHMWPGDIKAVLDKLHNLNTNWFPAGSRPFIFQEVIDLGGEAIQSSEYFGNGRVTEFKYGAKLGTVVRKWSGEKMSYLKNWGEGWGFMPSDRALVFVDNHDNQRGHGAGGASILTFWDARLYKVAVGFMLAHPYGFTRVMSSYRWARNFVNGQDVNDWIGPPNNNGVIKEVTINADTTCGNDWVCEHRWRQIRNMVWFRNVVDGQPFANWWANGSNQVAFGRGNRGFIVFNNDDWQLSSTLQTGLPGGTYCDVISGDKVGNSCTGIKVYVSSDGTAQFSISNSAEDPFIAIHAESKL
Sequence of UniProt P0A9P4 (whole entry, looked up): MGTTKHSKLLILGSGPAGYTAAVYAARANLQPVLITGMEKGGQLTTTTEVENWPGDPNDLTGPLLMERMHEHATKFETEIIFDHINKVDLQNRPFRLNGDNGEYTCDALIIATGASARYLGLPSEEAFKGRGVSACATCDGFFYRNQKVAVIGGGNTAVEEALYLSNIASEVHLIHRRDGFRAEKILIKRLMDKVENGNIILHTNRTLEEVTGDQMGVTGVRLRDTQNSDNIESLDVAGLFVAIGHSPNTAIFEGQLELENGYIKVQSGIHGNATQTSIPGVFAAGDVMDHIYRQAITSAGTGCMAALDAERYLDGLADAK
Sequence of UniProt P49137 (whole entry, looked up): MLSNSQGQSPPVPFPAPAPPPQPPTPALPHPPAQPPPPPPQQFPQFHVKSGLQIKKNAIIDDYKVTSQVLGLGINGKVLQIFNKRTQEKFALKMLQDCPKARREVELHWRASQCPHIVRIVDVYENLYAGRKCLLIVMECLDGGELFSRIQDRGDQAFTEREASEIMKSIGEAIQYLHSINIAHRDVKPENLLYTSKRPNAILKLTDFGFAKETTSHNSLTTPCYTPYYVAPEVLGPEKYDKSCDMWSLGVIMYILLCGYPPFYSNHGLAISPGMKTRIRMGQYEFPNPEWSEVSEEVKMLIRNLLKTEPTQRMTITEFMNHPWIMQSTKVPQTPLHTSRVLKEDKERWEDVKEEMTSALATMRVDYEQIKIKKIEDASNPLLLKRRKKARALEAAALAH
Sequence of UniProt Q9Y6K9 (whole entry, looked up): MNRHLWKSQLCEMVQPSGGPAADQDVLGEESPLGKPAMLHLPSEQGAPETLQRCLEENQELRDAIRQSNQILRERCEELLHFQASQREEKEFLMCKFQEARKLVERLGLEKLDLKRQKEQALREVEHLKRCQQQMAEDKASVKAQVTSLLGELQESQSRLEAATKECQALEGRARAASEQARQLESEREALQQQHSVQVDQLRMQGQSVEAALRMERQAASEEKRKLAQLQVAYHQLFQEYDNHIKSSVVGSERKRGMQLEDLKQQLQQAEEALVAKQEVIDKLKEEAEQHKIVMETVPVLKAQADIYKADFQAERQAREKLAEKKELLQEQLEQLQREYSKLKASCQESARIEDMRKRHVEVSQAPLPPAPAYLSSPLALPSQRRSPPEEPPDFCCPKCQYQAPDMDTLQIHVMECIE
Sequence of UniProt P37353 (whole entry, looked up): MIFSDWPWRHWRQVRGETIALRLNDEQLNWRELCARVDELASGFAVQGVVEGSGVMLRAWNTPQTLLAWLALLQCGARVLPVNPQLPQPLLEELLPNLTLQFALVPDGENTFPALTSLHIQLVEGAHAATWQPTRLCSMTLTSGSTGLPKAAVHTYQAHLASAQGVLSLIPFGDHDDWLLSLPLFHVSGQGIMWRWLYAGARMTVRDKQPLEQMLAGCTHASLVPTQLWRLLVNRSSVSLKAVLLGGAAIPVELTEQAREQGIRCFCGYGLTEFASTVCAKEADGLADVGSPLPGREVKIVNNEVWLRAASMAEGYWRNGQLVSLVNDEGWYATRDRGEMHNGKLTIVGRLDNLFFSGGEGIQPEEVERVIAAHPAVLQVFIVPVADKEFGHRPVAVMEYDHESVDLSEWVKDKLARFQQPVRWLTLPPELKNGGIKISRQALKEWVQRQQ
Sequence of UniProt P09769 (whole entry, looked up): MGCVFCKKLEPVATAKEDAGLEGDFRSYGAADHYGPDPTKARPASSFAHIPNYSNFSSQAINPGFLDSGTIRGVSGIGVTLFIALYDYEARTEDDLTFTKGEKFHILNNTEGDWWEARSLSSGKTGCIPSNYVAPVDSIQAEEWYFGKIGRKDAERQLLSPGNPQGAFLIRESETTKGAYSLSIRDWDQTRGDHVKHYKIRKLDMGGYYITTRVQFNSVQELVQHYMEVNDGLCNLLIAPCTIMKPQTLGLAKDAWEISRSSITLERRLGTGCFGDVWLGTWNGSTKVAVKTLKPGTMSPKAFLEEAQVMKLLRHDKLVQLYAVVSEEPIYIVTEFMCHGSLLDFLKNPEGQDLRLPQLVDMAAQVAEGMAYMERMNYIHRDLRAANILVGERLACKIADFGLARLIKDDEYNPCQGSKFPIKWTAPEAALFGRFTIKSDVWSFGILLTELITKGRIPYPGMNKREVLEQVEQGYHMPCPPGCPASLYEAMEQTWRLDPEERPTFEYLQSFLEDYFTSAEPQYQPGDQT
Sequence of UniProt P41968 (whole entry, looked up): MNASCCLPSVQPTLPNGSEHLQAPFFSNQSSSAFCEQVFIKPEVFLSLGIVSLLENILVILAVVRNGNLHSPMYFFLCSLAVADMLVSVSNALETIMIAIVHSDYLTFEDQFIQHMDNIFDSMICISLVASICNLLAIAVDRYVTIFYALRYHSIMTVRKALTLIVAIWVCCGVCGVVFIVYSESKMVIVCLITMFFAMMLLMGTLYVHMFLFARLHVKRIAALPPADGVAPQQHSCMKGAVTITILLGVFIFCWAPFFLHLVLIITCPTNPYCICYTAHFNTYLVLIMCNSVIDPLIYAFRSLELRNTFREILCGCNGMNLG

The IC50 of `O=C(c1cccc(S(=O)(=O)N2CCOCC2)c1)N1CCOCC1` is reported as 31.8 µM (Ectonucleoside triphosphate diphosphohydrolase 8 (Homo sapiens, UniProt Q5MY95); enzyme activity, inhibitor, absorbance).
`O=C(COC(=O)CCCn1c(=O)oc2cc([N+](=O)[O-])ccc21)Nc1cccc(Cl)c1` gave an IC50 of 0.49 µM (CDK4 (Homo sapiens, UniProt P11802); enzyme activity, inhibitor, ADP detection).
`COc1cc(O)c2c(=O)cc(-c3ccccc3)oc2c1` has an IC50 of > 10 µg/mL (α-glucosidase (Saccharomyces cerevisiae); inhibitor; with: pNPG).
`CN(Cc1cc(C2CC2)on1)S(=O)(=O)c1cccc(-c2ccc(F)cc2)c1` has an IC50 of > 50 µM (Acetyl-CoA synthetase (Cryptococcus neoformans, UniProt J9VFT1)).
For `CN(C(=O)c1ccn2ncc(-c3ccc(C(N)=O)cc3)c2c1)c1ccc(C#N)cn1`, the IC50 was > 30 µM (MC3R (Homo sapiens, UniProt P41968); ligand displacement).
For `N[C@@](CF)(Cc1ccc(O)cc1)C(=O)O`, the IC50 was 4700 µM (L-tyrosine decarboxylase (tyrDC, Enterococcus faecalis, UniProt P0DTQ4); L-dopa decarboxylation, inhibitor).
The IC50 of `O=S(=O)(Oc1ccc(F)cc1)C1CC2OC1C(c1ccc(O)cc1)=C2c1ccc(O)cc1` (racemic) is reported as 0.214 µM (ESR2 (Homo sapiens, UniProt Q92731); reporter gene, antagonist, luciferase).
With `Oc1cc(O)c2c(c1)O[C@H](c1ccc(O)c(O)c1)[C@@H](O)[C@@H]2c1c(O)cc(O)c2c1O[C@H](c1ccc(O)c(O)c1)[C@H](O)C2` the IC50 was 3 ± 0.5 µM (alpha-glucosidase (Bacillus stearothermophilus); inhibitor; 20 min, pH 6.8, 60 °C, with: pNPG substrate).
`CCNC(=O)[C@H]1O[C@@H](n2cnc3c(NCCCNC(=O)CCCCCNC(=O)COc4ccc(/C=C/C5=[N+]6C(=Cc7ccc(-c8cccs8)n7[B-]6(F)F)C=C5)cc4)ncnc32)[C@H](O)[C@@H]1O` has an IC50 of 0.309 µM (ADORA1 (Homo sapiens, UniProt P30542); ligand displacement in cells, radioligand).
`CC(Cl)C(=O)Nc1ccc2nc(NCCCCCN(C)C)nc(NCCCCCCN(C)C)c2c1` (stereo not drawn) gave an IC50 of 80.3 µM (SETDB1 (Homo sapiens, UniProt Q15047); enzyme activity, inhibitor).
The IC50 of `O=C([O][Ti+2][O]C(=O)c1ccc([P+]([Au-][Cl])(c2ccccc2)c2ccccc2)cc1)c1ccc([P+]([Au-][Cl])(c2ccccc2)c2ccccc2)cc1.c1cc[cH-]c1.c1cc[cH-]c1` is reported as 0.317 µM (MAPKAPK2 (Homo sapiens, UniProt P49137); enzyme activity, inhibitor, radiometric).
For `CC(=O)N1CC(C(=O)N2CCN(Cc3nc4ccccc4s3)CC2)Oc2ccccc21` (stereo not drawn), the IC50 was 59.7 ± 1.4 µM (gyrB (Escherichia coli, UniProt P0AES6); enzyme activity, inhibitor).
`Nc1ncnc2c1ncn2[C@@H]1O[C@H](CNc2c(NC(=O)CCC(=O)c3ccccc3C(=O)O)c(=O)c2=O)[C@@H](O)[C@H]1O` has an IC50 of > 200 µM (2-succinylbenzoate--CoA ligase (menE, Escherichia coli, UniProt P37353); enzyme activity, inhibitor, MenB-MenE coupled).
The IC50 of `NS(=O)(=O)Oc1ccc2c3c(c(=O)oc2c1)CCC3` is reported as 0.032 µM (STS; enzyme activity in cells, inhibitor).
With `Nc1cccc2c1[nH]c(=O)n2C1CCN(C(=O)Nc2ccc(I)cc2)CC1` the IC50 was 0.75 µM (OGG1 (Homo sapiens, UniProt O15527); enzyme activity, inhibitor).
For `CC12CC3CC(C)(C1)CC(NC(=O)NC1CCC(Oc4ccc(C(=O)O)cc4)CC1)(C3)C2` (stereo not drawn), the IC50 was 0.0038 µM (Ephx2; enzyme activity, inhibitor, fluorescence).
`C=CCNC(=O)NC1CC=C(c2cc3c(Nc4cc5ncsc5cc4F)ncnc3s2)CC1` (racemic) gave an IC50 of 0.007 µM (RIPK2 (Homo sapiens, UniProt O43353); enzyme activity, inhibitor).
The IC50 of `C[C@@H]1NC(=O)[C@H](Cc2c[nH]c3ccccc23)NC(=O)CNC(=O)c2cc3cc(c2)C(=O)NC[C@@H](C(=O)NCCC(=O)NCCC(=O)N[C@@H](CCCCN)C(N)=O)NC(=O)[C@H](CCCNC(=N)N)NC(=O)[C@@H](CCCNC(=N)N)NC(=O)[C@H](CCCNC(=N)N)NC(=O)[C@H](Cc2ccc4ccccc4c2)NC(=O)[C@H](Cc2ccccc2)NC(=O)[C@H](CNC3=O)NC(=O)[C@H](C)NC(=O)[C@H](Cc2ccc(O)cc2)NC1=O` is reported as 1.7 ± 0.1 µM (NF-kappa-B essential modulator, with IKK-beta (IKBKG, Homo sapiens, UniProt Q9Y6K9); inhibitor, HTRF).
With `COc1cc(O)ccc1CC[C@@H](c1ccc(O)cc1)c1cc2c(c(C)c1O)O[C@H](c1ccc(O)cc1)CC2` the IC50 was 0.8 µM (ALOX5 (Homo sapiens, UniProt P09917); 5-LO product formation; human PMNL; with: A23187 plus arachidonic acid).
`N/C(=N\O)c1ccc2c(c1)Oc1ccccc1N2Cc1cccc(C(=O)NO)c1` has an IC50 of > 40 µM (HDAC4 (Homo sapiens, UniProt P56524); enzyme activity, inhibitor).
With `CC(=O)C1=C(C)NC(=O)NC1c1ccc(C)cc1` (stereo not drawn) the IC50 was 145 µM (AMY2 (Sus scrofa, UniProt P00690); enzyme activity, inhibitor).
With `N#C/C(=C1C=C/C(=N\O)C(Br)=C/1)c1ccc(Cl)cc1` the IC50 was 2.86 µM (Estrogen receptor (ESR1, Homo sapiens, UniProt P03372); coactivator recruitment, antagonist).
The IC50 of `CCC(NC(=O)CN1C(=O)N/C(=C\c2ccc(C)cc2)C1=O)C(=O)OC` (stereo not drawn) is reported as > 100 µM (α-amylase; enzyme activity, DNSA colorimetric).
`CCCCCCCCCCCCN` has an IC50 of > 500 µM (Ephx2; enzyme activity, inhibitor, absorbance; pH 7.4, with preincubation).
`CC(=O)[C@@]12C[C@@H](CC=C(C)C)[C@](C)(CCC=C(C)C)C(C(=O)c3ccccc3)=C1O[C@]1(C)CCCC(C)(C)[C@H]1C2` (relative stereo) has an IC50 of > 100 µM (α-glucosidase Saccharomyces cerevisiae; with: p-nitrophenyl glucoside).
`N#Cc1ccc(N(Cc2c(F)cc(OS(N)(=O)=O)cc2F)n2cnnc2)cc1` has an IC50 of 0.01 to 0.1 µM (STS; enzyme activity, inhibitor; JEG-3 intact monolayers).
`COc1ncc2nc(C)n(Cc3ccc(S(N)(=O)=O)cc3)c2c1-c1ccccc1` has an IC50 of 0.00255 µM (ENPP1 (Homo sapiens, UniProt P22413); enzyme activity, inhibitor).
`CC(C)[C@@H](CS(=O)(=O)C(C)C)N1C(=O)[C@@](C)(CC(=O)NCCOCCOCCOCCNC(=O)c2ccc(F)nc2)C[C@H](c2cccc(Cl)c2)[C@H]1c1ccc(Cl)cc1` gave an IC50 of 0.012 µM (MDM2 (Homo sapiens, UniProt Q00987); ligand displacement, FP).
With `C(=N\N=c1\scc(-c2ccccc2)n1-c1ccccc1)/c1ccc(N2CCOCC2)cc1` the IC50 was 24.4 µM (CA2 (Bos taurus, UniProt P00921); enzyme activity, inhibitor, absorbance).
`CCn1cc[n+](CC)[c]1[Au-]([Cl])([Cl])[Cl]` gave an IC50 of 0.55 µM (trxB (Escherichia coli, UniProt P0A9P4); enzyme activity, inhibitor, absorbance; with preincubation).
`COc1cc(/C=C/C(=O)CC(=O)CCc2ccc(O)c(OC)c2)ccc1O` gave an IC50 of ≥ 100 µM (HSD3B2 (Homo sapiens, UniProt P26439); enzyme activity, inhibitor; KGN cell homogenate; lower bound from 100 µM screen, with: pregnenolone).
For `C[C@@]12CC[C@@H]3c4ccc(O)c(Br)c4CC[C@H]3[C@@H]1CCC2=O`, the IC50 was 2.2 µM (AKR1C2 (Homo sapiens, UniProt P52895); enzyme activity, inhibitor, absorbance; pH 9).
The IC50 of `CNC(=O)c1cc(C)ccc1NC(=O)c1ccc(-c2c(C)ccc3[nH]ncc23)c(C)c1` is reported as 34.5 µM (FGR (Homo sapiens, UniProt P09769); target engagement in cells, BRET).

A few entries again:
`CCCCCCCCCCCCN` has an IC50 of > 500 µM (Ephx2; enzyme activity, inhibitor, absorbance; pH 7.4, with preincubation).
`CC(=O)[C@@]12C[C@@H](CC=C(C)C)[C@](C)(CCC=C(C)C)C(C(=O)c3ccccc3)=C1O[C@]1(C)CCCC(C)(C)[C@H]1C2` (relative stereo) has an IC50 of > 100 µM (α-glucosidase Saccharomyces cerevisiae; with: p-nitrophenyl glucoside).
For `CC(=O)N1CC(C(=O)N2CCN(Cc3nc4ccccc4s3)CC2)Oc2ccccc21` (stereo not drawn), the IC50 was 59.7 ± 1.4 µM (gyrB (Escherichia coli, UniProt P0AES6); enzyme activity, inhibitor).
`CC(Cl)C(=O)Nc1ccc2nc(NCCCCCN(C)C)nc(NCCCCCCN(C)C)c2c1` (stereo not drawn) gave an IC50 of 80.3 µM (SETDB1 (Homo sapiens, UniProt Q15047); enzyme activity, inhibitor).
`Nc1ncnc2c1ncn2[C@@H]1O[C@H](CNc2c(NC(=O)CCC(=O)c3ccccc3C(=O)O)c(=O)c2=O)[C@@H](O)[C@H]1O` has an IC50 of > 200 µM (2-succinylbenzoate--CoA ligase (menE, Escherichia coli, UniProt P37353); enzyme activity, inhibitor, MenB-MenE coupled).
